Measurements gathered from unrelated publications.
Every numbered part comes from another study and shows a few of its results, in no order.

Study 1 — method: competition protein-binding microarray; molecule type: double-stranded DNA, one strand shown; matrix: in vitro; tested at: 2 µM; added: Pho4 competitor, 0.05 µM; reading: higher = stronger binding; constant ends, left off below: … GTCTTGATTCGCTTGACGCTGCTG
Target: Centromere-binding protein 1, full length, His-tagged (CBF1, Saccharomyces cerevisiae, UniProt P17106, residues 1-351)
Chain of UniProt P17106 (whole entry, looked up): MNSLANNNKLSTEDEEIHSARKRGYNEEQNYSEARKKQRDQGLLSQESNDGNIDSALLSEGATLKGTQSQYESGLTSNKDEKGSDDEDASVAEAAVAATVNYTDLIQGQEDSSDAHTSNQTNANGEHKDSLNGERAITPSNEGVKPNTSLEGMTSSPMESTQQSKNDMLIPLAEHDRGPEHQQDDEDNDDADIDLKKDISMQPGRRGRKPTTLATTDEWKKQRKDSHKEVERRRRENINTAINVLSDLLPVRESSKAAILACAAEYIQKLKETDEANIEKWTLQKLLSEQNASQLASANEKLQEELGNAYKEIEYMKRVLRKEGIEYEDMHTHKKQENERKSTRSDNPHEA
Notes: whole 60-bp probe, lowest competitor level
Strand	fluorescence intensity [a.u.]
CGTTTCATTCAAGAGGGCGTGCATCCGCGGATCATC	86.9
GACGACCGTACTTTGCACGTGGCCGCAGACACATTT	1370
TGCGAAATTTGAGTACACGTGAGTCAGTCAGTCGGC	2170
TTCAACTCACATTTGCACGATGCAAGCCAATGGAAA	80.7
TTAAAAATAGACTATTCGACAACTTTCCTACTGCTA	77.8
AAATCATGAGAAGCGCACATGTCGAGATATCAATAG	146
CGGGGTTAAGTTTGCACTGTGGGTGGCTTGCAGCAG	75.6
TTTGGCGCCAATGAACTCGTGGTCGGGACCTCCACC	97.4
CAAGAAATCTTGTTCCTCGTGGCCGAATGGTTACGG	93.6
TGCCTTTTTCATTGTCATGTGGGTTTTGGAGAGCTT	217
ATTCAATGTCGTTATGACCTGCTCGGGATGTTCTGG	70
GGGATCAAGACCCATCTCGTGCTTTATACCCGGGTC	104
AGAGTCATCGGCTTCACCGTGAGGTTTTTTCAAGTG	69.9
CTTTCCCGATCTTGTCACGGAACTTTAGCACATTTG	96.3
TTGACCGATTTTCTGATCATGCAAAACTTTAGAGCT	107
CGACTTCAGCCAAATAACGTGGAGGCTCTGGAACAA	71.9
TGTCATATTCATTTGCACGTTCTTTTTTTAATTTAT	210
AGTATAGAGTTTCGGCACGGGTGGCAGCGTTCAAAG	73.4
CTTTCCCGATCTTGCAGTGTGGGTGTAGCACATTTG	69.2
CATGCTATGATGCCCACTGTGATATCCAGAGCAAAG	97.2
TTGGTACGAAGAAAGCACGTGGATTCAGCAATTCAA	1400
GTGTTAAAGACTTGTAAAAGTTGCCGTAAAACACTA	91.7
TTTAATTTAATTCGGCATGTGGCCGGCAGGGTAATG	107
TACCGGATGCAATCGCACGGGCACTAGCCTGTGCCT	53.3
GAGCAGTTCTGTAACCAGATCTCTTGTGTTGCTTGG	71.5

Study 2 — method: protein binding microarray; molecule type: double-stranded DNA, one strand shown; matrix: in vitro; tested at: not given; relative to: not given; reading: higher = stronger binding
Target: Histone acetyltransferase KAT6A, winged helix 1, GST fusion (KAT6A, Homo sapiens, UniProt Q92794, residues 1-85)
Notes: 8-mer, flanks averaged, mean of 2 arrays, mostly near background
Residues (chain): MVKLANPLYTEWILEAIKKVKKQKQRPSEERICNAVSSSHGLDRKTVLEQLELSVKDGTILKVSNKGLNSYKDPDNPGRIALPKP
Strand	E-score
ATTATCGC	0.0222
GCTAAAGC	-0.00808
TAAGTAAA	-0.133
TAGTACCA	-0.0974
ACGGTGGA	0.0233
AACCGACT	0.068
CAGACCGC	0.252
CTGCCTCC	0.044
CGATCAGA	-0.0115
TAGCTCGA	-0.0977
AATACCAG	-0.208
TAATGGAA	0.00036
CCTTGTTC	-0.134
CGACCACG	0.0861
CAAACCTG	-0.0501
CCAAGACA	-0.295
ACCCCGCC	0.417
ATTCTTTG	-0.164
AACGTGTC	0.0196
ATAGGGAT	-0.15
CACTTGCA	-0.21
AGAGGATA	-0.327
GCAGACGC	0.19
AGTCCCCG	0.157
GAGGGCAA	-0.117

Study 3 — method: protein-binding microarray; molecule type: double-stranded DNA, one strand shown; matrix: in vitro; tested at: 940 nM top; notes: 60-bp whole probe; added: salmon DNA 0.4 mg/ml; relative to: random background probes; reading: higher = stronger binding; constant ends, left off below: GCCTAGCAC … GTCTTGATTCGCTTGACGCTGCTG
Target: Interferon regulatory factor 5, full length, phosphomimetic (IRF5, Homo sapiens, UniProt Q13568-2, residues 1-514, S451D/S453D/S456D/S462D)
Strand	fitted relative affinity
GACGATTTCAGTTCCGAGACGTGCTAG	0.806 z-score
TTTGCTCTGTGCATAGGCCTGTGCTAG	-0.429 z-score
GACGGTTTCGGTATCGGGATGTGCTAG	13.1 z-score
TTAGGTCTCGGTCACGGTTAGTGCTAG	4.62 z-score
TTCGGTTTCGGTATCGGTTAGTGCTAG	14.8 z-score
GTCGGTCTCCTACTGCTGACGTGCTAG	0.247 z-score
AGACGAATCATATCAAAATTGTGCTAG	-0.0635 z-score
GAGGATTTCAGTTTCGAGACGTGCTAG	4.51 z-score
GACGGACTGCTCATCCTGACGTGCTAG	-0.434 z-score
GACGAACTGAGGACTGGAGACGTGCTA	-0.448 z-score
TTAGGTATCGGACTGGCTTAGTGCTAG	3.76 z-score
TTAGATCTCAGTATCGATTAGTGCTAG	5.04 z-score
GACGGATTGGACTTTCGGGACGTGCTA	0.569 z-score
GAAGATCTCAGTCTCGAGACGTGCTAG	1.26 z-score
TTAAGTCTCGGTATCGGTTAGTGCTAG	8.53 z-score
TTAGGTCTCAGACTGGGTTAGTGCTAG	-0.282 z-score
TTAGAATTGGGGTATCGATTAGTGCTA	3 z-score
GACGATATCAGTTTCGAGACGTGCTAG	4.4 z-score
TTAGGTTTCGACACTGGGTTTGTGCTA	8.43 z-score
TTAGTACTGGGTTTCGGTTAGTGCTAG	6.87 z-score
GACGGACTGCTTTTCCTAACGTGCTAG	-0.397 z-score
GAAGCTTCTTTTTTATTCTAGTGCTAG	0.713 z-score
TCCTGTATGGATGTGTCTTAGTGCTAG	-0.337 z-score
TCACGCTTCATCTCCCAGACTGTGCTA	0.502 z-score
GACTGTCTCCTTATCCTGACGTGCTAG	0.766 z-score

Study 4 — method: RNA Bind-n-Seq; molecule type: RNA; matrix: in vitro; tested at: 365 nM; relative to: no-protein control; reading: higher = stronger binding
Target: RNA binding protein fox-1 homolog 2, RRM domain, GST-SBP tag (RBFOX2, Homo sapiens, UniProt O43251-10, residues 100-194)
Notes: natural RNA segment, single round, ends assumed
Constant ends, left off below: GGGAGUUCUACAGUCCGACGAUC … UGGAAUUCUCGGGUGCCAA
Target sequence (chain): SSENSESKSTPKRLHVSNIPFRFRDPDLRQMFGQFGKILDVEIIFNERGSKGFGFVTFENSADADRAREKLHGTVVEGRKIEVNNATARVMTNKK
Strand	RBNS enrichment (R)
CACUGAUUCGGUGUUUUUGCAGUGCAUUCAACUUCUACAGAAGUUAACAUAUAAUGUCAAAAUUUUCUAUUCUGGUGCCAAUAUAGAUGAAUUAAUUACGUUCCUGAUAG	0.418
CAAGCCAUUCCUAUCAAAAUAUUAUUUAUUUCAGUCAAUUUUACCAAAUAACAAAGACAAUAUAUUUUCGUUUUUUUUUAUUAUGAGCAUAUGAUUUUUUGACAGGCUGU	0.518
AUGAGAUAUCAUGUUUUAGCAUUCCAUUUUACUGACUAGGGUAGAAGAACACUUUUCUUGGCUACAUUUGGAGGAUACCCAGGGAGUCUUGGGUGUUCCUUAUCUGGGGA	0.28
GUGAAGAGCUGGAAACUUAAAAAAUUAUCAAAAGGAAUUUUGGUAUCAUCUUCAGAGAAAAAAUAAAGCAAGAAAUACUAACAUCAAAAGGACAGGUAUGAUGAUGCGAU	0.834
CUGGAAAUACUUUUUAAAGAAAAAGAAAAACACAAGAAAAAAAUCAGUAUCAGAAGUCAAAGCGAAACAAUACCGUCUGGCACUUAACUCUCAGGUCCCCCACUUAGUCA	0.754
CUUUUUCUGCAAUUUGUUUGCAUUUUUUAGAAGUGCAAACAGUAAGUAAAUAAAAGCCUUCGGUAAUAAUCAUGACAAUACAAGAGGCUGAGCUAGGCUACAGGGGAAAA	0.609
UUUUGUUGUUGCGUAGUCUUUGUUUUAUACUUCUACAAUACCCGUAUAGCCUUCCACAUAGAUCUGCAUCAUGUAAGCUCAGGUUACUAUGAUUCCCUUCAGUUUCCUUC	0.321
AUUAUUGGGUCUCUGCCUUAAAACACAUCAAAAUUCAUUUUAGACAAAAAAACUUCUGCUUUGUCUUUGGUCAUUAGGGAGCUCUAAUGUGUGUUUGUGGCUCCAAGUUA	0.517
UUAAUUUCUUUUGUUGCAUAACAAAAUAAAAGAAUUAUGUAUUUUUAACUAAGGAGAGACAUACUGGUAUAUCAUUUUACUACAAGCUACAGAUAACCUGUUGAGCUUGU	0.479
UUUACCAAGCACCACCCUAACCUCUAAAAUCAGAGUUCAGCUGAGCUAUUAGUAGUGGGUGGUCACCAUGACUGCCCAAGCUACAACAGCUGAUCUCUUCCCAGGUCACC	0.408
GACAGCCCCUUGUGCUGUGAGCAGAGCAGGCAGUGGCUCUGGAGGCUGCCUGUGGUCUCCUUCCGGCUGUGGCUGACAGUGGCUCUGGCCAGGGUUGCUUGGAGAAGGCU	0.447
CUGGCAGUAAAGAUGGCCCCAGACUGGGUUCCUGCCUGCAGUGUGUGUGGCGGUAGCCCAUGUGCCUUUACCUAAUGUCAGAUUUGCAAGCGUUUCGUCUGUCUUUAUGU	2.13

A few entries again (study 4):
Strand	RBNS enrichment (R)
UUAAUUUCUUUUGUUGCAUAACAAAAUAAAAGAAUUAUGUAUUUUUAACUAAGGAGAGACAUACUGGUAUAUCAUUUUACUACAAGCUACAGAUAACCUGUUGAGCUUGU	0.479
AUUAUUGGGUCUCUGCCUUAAAACACAUCAAAAUUCAUUUUAGACAAAAAAACUUCUGCUUUGUCUUUGGUCAUUAGGGAGCUCUAAUGUGUGUUUGUGGCUCCAAGUUA	0.517
UUUUGUUGUUGCGUAGUCUUUGUUUUAUACUUCUACAAUACCCGUAUAGCCUUCCACAUAGAUCUGCAUCAUGUAAGCUCAGGUUACUAUGAUUCCCUUCAGUUUCCUUC	0.321
CUGGCAGUAAAGAUGGCCCCAGACUGGGUUCCUGCCUGCAGUGUGUGUGGCGGUAGCCCAUGUGCCUUUACCUAAUGUCAGAUUUGCAAGCGUUUCGUCUGUCUUUAUGU	2.13
CUUUUUCUGCAAUUUGUUUGCAUUUUUUAGAAGUGCAAACAGUAAGUAAAUAAAAGCCUUCGGUAAUAAUCAUGACAAUACAAGAGGCUGAGCUAGGCUACAGGGGAAAA	0.609
GUGAAGAGCUGGAAACUUAAAAAAUUAUCAAAAGGAAUUUUGGUAUCAUCUUCAGAGAAAAAAUAAAGCAAGAAAUACUAACAUCAAAAGGACAGGUAUGAUGAUGCGAU	0.834
CAAGCCAUUCCUAUCAAAAUAUUAUUUAUUUCAGUCAAUUUUACCAAAUAACAAAGACAAUAUAUUUUCGUUUUUUUUUAUUAUGAGCAUAUGAUUUUUUGACAGGCUGU	0.518
CACUGAUUCGGUGUUUUUGCAGUGCAUUCAACUUCUACAGAAGUUAACAUAUAAUGUCAAAAUUUUCUAUUCUGGUGCCAAUAUAGAUGAAUUAAUUACGUUCCUGAUAG	0.418
CUGGAAAUACUUUUUAAAGAAAAAGAAAAACACAAGAAAAAAAUCAGUAUCAGAAGUCAAAGCGAAACAAUACCGUCUGGCACUUAACUCUCAGGUCCCCCACUUAGUCA	0.754
GACAGCCCCUUGUGCUGUGAGCAGAGCAGGCAGUGGCUCUGGAGGCUGCCUGUGGUCUCCUUCCGGCUGUGGCUGACAGUGGCUCUGGCCAGGGUUGCUUGGAGAAGGCU	0.447
